# Measurements gathered from unrelated publications.
# CYP2D6: Cytochrome P450 2D6 (CYP2D6, Homo sapiens, UniProt P10635)
# Chain of UniProt P10635 (whole entry, looked up): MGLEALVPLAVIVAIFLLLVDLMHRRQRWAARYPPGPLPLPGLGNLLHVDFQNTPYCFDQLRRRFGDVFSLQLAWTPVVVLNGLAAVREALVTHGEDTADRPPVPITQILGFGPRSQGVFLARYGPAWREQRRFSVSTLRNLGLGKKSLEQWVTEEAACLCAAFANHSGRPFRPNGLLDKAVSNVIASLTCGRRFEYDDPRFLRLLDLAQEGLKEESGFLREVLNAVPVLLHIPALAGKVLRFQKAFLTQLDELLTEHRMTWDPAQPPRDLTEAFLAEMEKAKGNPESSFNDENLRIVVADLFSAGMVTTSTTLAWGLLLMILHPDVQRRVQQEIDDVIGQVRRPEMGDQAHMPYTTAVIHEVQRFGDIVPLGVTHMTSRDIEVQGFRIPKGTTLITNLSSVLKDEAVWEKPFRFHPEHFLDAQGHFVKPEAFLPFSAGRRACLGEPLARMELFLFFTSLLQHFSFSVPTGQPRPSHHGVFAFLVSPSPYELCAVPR
# UGT1A1: UDP-glucuronosyltransferase 1A1 (UGT1A1, Homo sapiens, UniProt P22309)
# Chain of UniProt P22309 (whole entry, looked up): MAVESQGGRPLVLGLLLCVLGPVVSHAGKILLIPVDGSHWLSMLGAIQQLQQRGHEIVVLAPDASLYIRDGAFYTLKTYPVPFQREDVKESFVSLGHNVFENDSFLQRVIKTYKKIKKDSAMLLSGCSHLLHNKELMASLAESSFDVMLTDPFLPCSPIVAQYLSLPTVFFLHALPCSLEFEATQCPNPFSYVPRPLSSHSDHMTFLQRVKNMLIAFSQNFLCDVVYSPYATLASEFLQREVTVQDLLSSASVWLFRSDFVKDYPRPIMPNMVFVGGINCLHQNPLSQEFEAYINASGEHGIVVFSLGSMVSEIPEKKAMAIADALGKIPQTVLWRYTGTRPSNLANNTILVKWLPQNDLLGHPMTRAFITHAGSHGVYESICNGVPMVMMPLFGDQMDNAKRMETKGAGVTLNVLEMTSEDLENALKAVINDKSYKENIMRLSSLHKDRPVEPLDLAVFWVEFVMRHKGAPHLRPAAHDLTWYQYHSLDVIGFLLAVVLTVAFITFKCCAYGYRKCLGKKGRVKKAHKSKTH
# KCNH2: Voltage-gated inwardly rectifying potassium channel KCNH2 (KCNH2, Homo sapiens, UniProt Q12809)
# Chain of UniProt Q12809 (whole entry, looked up): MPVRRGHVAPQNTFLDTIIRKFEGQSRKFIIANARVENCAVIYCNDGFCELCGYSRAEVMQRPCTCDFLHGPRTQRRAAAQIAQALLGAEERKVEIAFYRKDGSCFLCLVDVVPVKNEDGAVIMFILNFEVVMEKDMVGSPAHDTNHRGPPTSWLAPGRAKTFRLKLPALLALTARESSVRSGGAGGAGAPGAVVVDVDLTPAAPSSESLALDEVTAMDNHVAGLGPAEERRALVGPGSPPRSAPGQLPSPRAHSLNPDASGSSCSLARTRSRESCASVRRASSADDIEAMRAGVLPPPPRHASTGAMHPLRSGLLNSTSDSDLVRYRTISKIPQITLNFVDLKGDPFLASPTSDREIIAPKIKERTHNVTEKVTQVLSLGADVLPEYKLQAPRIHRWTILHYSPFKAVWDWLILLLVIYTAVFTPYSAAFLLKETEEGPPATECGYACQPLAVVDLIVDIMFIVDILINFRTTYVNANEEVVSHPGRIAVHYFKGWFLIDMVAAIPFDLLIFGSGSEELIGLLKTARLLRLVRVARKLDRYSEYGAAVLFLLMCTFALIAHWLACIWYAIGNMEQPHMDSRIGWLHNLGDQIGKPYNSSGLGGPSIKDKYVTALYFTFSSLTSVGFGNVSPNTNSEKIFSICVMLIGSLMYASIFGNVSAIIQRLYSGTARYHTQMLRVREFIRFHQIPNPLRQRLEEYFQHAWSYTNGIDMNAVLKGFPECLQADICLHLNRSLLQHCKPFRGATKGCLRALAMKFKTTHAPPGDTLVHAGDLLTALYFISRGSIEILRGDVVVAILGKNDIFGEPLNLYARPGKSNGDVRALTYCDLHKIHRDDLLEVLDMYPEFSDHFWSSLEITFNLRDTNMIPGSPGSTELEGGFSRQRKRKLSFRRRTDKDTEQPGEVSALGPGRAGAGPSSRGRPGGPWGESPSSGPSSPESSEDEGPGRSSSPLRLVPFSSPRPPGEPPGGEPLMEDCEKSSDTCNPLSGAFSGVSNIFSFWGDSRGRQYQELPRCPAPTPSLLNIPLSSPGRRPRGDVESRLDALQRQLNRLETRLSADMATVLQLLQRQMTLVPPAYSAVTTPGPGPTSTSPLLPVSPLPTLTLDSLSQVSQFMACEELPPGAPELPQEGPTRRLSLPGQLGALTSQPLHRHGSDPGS
# ALDH1A2: Retinal dehydrogenase 2 (ALDH1A2, Homo sapiens, UniProt O94788)
# Chain of UniProt O94788 (whole entry, looked up): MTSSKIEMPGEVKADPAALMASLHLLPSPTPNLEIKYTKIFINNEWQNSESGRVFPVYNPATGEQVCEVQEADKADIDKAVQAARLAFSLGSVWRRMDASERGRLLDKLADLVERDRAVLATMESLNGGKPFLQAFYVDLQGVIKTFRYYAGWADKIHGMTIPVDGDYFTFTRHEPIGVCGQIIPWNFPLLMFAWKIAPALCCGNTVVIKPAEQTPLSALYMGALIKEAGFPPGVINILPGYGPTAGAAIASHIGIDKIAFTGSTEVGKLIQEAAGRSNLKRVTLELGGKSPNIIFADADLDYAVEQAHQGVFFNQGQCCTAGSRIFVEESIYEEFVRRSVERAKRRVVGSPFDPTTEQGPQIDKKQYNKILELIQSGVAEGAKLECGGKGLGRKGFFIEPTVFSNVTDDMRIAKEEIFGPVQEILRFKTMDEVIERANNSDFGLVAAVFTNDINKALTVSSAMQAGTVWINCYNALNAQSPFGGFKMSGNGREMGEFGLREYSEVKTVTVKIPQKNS
# CYP3A7: Cytochrome P450 3A7 (CYP3A7, Homo sapiens, UniProt P24462)
# Chain of UniProt P24462 (whole entry, looked up): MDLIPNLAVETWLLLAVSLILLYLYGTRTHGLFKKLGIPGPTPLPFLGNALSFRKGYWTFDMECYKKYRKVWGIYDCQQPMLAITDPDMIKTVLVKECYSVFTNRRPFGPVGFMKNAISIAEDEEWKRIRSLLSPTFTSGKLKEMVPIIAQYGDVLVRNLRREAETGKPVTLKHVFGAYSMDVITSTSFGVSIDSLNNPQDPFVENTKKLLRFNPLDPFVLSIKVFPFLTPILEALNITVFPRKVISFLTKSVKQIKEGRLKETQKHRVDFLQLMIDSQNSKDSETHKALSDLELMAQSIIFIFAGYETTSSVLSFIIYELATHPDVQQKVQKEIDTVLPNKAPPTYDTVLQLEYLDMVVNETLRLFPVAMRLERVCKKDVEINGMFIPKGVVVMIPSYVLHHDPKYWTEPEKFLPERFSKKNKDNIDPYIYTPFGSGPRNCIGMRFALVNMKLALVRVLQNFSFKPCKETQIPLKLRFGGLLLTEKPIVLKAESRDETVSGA
# Chain of UniProt Q9Y6L6 (whole entry, looked up): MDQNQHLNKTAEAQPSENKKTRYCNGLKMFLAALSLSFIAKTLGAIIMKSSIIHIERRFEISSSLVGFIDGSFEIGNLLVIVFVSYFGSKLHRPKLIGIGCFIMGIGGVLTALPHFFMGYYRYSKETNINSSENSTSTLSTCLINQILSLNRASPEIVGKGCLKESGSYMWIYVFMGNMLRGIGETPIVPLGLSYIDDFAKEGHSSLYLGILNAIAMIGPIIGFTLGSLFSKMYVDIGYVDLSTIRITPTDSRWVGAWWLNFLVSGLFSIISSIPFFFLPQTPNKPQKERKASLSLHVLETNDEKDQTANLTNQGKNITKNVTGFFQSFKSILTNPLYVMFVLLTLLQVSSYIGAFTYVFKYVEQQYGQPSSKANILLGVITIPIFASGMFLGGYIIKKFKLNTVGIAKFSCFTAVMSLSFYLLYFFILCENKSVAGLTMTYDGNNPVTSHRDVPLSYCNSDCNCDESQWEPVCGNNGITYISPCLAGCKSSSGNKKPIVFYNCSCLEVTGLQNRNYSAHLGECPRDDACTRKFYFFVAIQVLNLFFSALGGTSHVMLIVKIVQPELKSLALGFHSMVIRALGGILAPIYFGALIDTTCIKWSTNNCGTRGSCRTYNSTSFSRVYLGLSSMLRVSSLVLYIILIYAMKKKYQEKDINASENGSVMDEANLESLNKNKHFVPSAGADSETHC
# Chain of UniProt O15245 (whole entry, looked up): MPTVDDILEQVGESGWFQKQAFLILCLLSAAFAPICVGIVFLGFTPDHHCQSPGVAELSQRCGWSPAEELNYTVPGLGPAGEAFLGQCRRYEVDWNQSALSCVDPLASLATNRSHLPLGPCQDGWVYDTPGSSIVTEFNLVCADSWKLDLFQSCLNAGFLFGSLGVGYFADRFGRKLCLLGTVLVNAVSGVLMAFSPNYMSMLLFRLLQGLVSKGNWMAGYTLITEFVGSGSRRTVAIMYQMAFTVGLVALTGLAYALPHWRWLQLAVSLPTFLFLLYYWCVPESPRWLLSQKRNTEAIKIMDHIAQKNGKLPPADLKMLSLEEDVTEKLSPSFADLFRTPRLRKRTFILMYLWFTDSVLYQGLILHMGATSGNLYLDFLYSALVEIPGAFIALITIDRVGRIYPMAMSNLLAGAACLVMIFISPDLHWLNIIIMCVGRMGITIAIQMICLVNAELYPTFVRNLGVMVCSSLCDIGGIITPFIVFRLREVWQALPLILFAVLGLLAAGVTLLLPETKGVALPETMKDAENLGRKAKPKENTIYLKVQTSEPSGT
Structure (SMILES),target,test,system,conditions,measurement,value
COCCc1ccc(OCC(O)CNC(C)C)cc1 (stereo not shown),CYP2D6,,"human, plasma","oral, 100 mg, single dose, healthy volunteers",Tmax,1.99 h
CN(CCC(=O)O)C(=O)c1ccc2c(c1)CC[C@@H]1[C@@H]2CC[C@]2(C)C(c3cncc(F)c3)=CC[C@@H]12,UGT1A1,"enzyme activity, inhibitor","human, liver microsomes",,Ki,1.2 µM
O=c1[nH]c(=O)c(Cc2cccc(C(F)(F)F)c2)c([C@H]2CC[C@H](c3ccccc3)CC2)[nH]1,"SLC22A1 (Homo sapiens, UniProt O15245)","transporter uptake, inhibitor",,1 µM,inhibition,< 50%
CNCCN1CCN(c2cnc3c(cc(C(=O)NCc4ccc(Cl)cc4)c(=O)n3CC(=O)N3CC(C)(F)C3)n2)C1=O,KCNH2,"ion current, inhibitor, patch clamp",,40 µM,inhibition,42%
Nc1nc2c(s1)C(c1ccccc1Cl)CC(=O)N2 (stereo not shown),ALDH1A2,"enzyme activity, inhibitor, fluorescence",,,IC50,< 10 µM
CSc1ccccc1C(=O)NCCn1cc(C(=O)NCc2cccc(C)n2)c(=O)c2cc3c(cc21)OC(F)(F)O3,CYP2D6,"enzyme activity, inhibitor","human, liver microsomes","20 min, without NADPH, with preincubation",IC50,> 100 µM
Cc1cnc(C(=O)N[C@H]2CCCCC/C=C\[C@@H]3C[C@@]3(C(=O)NS(=O)(=O)C3CC3)NC(=O)[C@@H]3C[C@@H](Oc4nc5ccccc5c5ccccc45)CN3C2=O)cn1,CYP3A7,"enzyme activity, inhibitor, fluorescence",,"20 µM, 10 min, pH 7.4",inhibition,≥ 50%
O=C(O)COc1cccc(-c2nc(Nc3ccc4[nH]ncc4c3)c3ccccc3n2)c1,UGT1A1,"enzyme activity, inhibitor",,,IC50,0.629 µM
O=C(CCCCCCC(=O)Nc1ccccc1)NO,CYP2D6,"enzyme activity, inhibitor, fluorescence",,,IC50,4.89 µM
O=C(O)[C@H]1O[C@@H](Oc2ccc([C@@H]3[C@@H](CC[C@H](O)c4ccc(F)cc4)C(=O)N3c3ccc(F)cc3)cc2)[C@H](O)[C@@H](O)[C@@H]1O,"SLCO1B1 (Homo sapiens, UniProt Q9Y6L6)","transporter uptake, inhibitor",,,IC50,22.7 µM
CSc1ccccc1C(=O)NCCn1cc(C(=O)NCc2cccc(C)n2)c(=O)c2cc3c(cc21)OCO3,CYP2D6,"enzyme activity, inhibitor","human, liver microsomes","20 min, without NADPH, with preincubation",IC50,> 100 µM
CC(C)(C)[C@@H]1NC(=O)O[C@@H]2CCC[C@H]2OC/C=C/C(F)(F)c2nc3ccccc3nc2O[C@@H]2C[C@@H](C(=O)N[C@]3(C(=O)NS(=O)(=O)C4(C)CC4)C[C@H]3C(F)F)N(C2)C1=O,CYP3A7,"enzyme activity, inhibitor, fluorescence",,"20 µM, 10 min, pH 7.4",inhibition,≥ 50%
CC(=O)c1cc(C(=O)N[C@@H](C)Cn2ccc(-c3ccc(C#N)c(Cl)c3)n2)[nH]n1,UGT1A1,"enzyme activity, inhibitor","human, liver microsomes",,IC50,6.4 µM
CCOC(=O)C1=C(CN2CCC[C@@H]2C(=O)Nc2ccc(B(O)O)cc2)NC(c2nccs2)=N[C@H]1c1ccc(F)cc1Br,KCNH2,"ion current, inhibitor, patch clamp",HEK293,"0.3 µM, pH 7.4",inhibition,3.52%
Cc1ccc(S(=O)(=O)c2ncccc2[N+](=O)[O-])cc1,ALDH1A2,"enzyme activity, inhibitor, fluorescence",,,IC50,0.4 µM
CN(C)C(=O)CN1CCN(c2cnc3c(cc(C(=O)NCc4ccc(Cl)cc4)c(=O)n3CC(=O)N3CC(C)(F)C3)n2)C1=O,KCNH2,"ion current, inhibitor",,40 µM,inhibition,42.7%

# Some of these lines once more:
Structure (SMILES),target,test,system,conditions,measurement,value
Nc1nc2c(s1)C(c1ccccc1Cl)CC(=O)N2 (stereo not shown),ALDH1A2,"enzyme activity, inhibitor, fluorescence",,,IC50,< 10 µM
CSc1ccccc1C(=O)NCCn1cc(C(=O)NCc2cccc(C)n2)c(=O)c2cc3c(cc21)OC(F)(F)O3,CYP2D6,"enzyme activity, inhibitor","human, liver microsomes","20 min, without NADPH, with preincubation",IC50,> 100 µM
